Experimental data of several laboratories.
Lines come from different studies, so protocols differ.
Target: Focal adhesion kinase 1 (PTK2, Homo sapiens, UniProt Q05397)

SMILES | test | test system | setting | scale | quantity | result
C[C@H]1CN(C(=O)c2cn(-c3ccnc(N)n3)c3cc(C#CC4(O)CCCCC4)ccc23)CCN1 | enzyme activity, inhibitor, FRET |  | 1 µM |  | inhibition | 2%
CCn1cc(C(=O)O)c(=O)c2c(N)c(F)c(NC3CCCCC3)cc21 | kinase activity |  | 0.1 µM, with: ATP at Km |  | inhibition | -2.3%
O=C(Cc1ccc(OCc2ccccc2)cc1)NC1(C(=O)O)CCN(C(=O)c2ccc(-c3cccc(Cl)c3)cc2)CC1 | enzyme activity, inhibitor |  | 10 µM |  | activity vs control | 98%
CN1CCN(Cc2ccc(-c3ccc(CO[C@H]4CCC[C@@H]4NC(=O)c4cc(-c5cnn(C)c5)cnc4N)cc3)cc2)CC1 | enzyme activity, inhibitor |  | 0.1 µM |  | inhibition | 3%
C=CC(=O)N1Cc2nc(-c3cc(-c4cc(Cl)cnc4Cl)c(F)cc3F)n(-c3ccncn3)c2C1 | cell-free assay, inhibitor |  | 1 µM |  | inhibition | 10.4%
C=C1CCCCCCCCCC(CO)C1=O (centres unmarked) | cell-free assay, competition with immobilised ligand |  | 10 µM |  | remaining binding | 69%
C=CC(=O)Nc1cc(-c2nn(C3CCN(CCNC(=O)[C@H](C)CCC45CC6CC(CC(C6)C4)C5)CC3)c3ncnc(N)c23)ccc1Oc1ccccc1 | inhibitor, KiNativ profiling | biochemical | 2 µM |  | inhibition | 3.6%
CC(C)=CC1OC(C)(C)C2C=C3C(=O)C(Cl)=CC(O)C3C3C(O)C4OC4C(=O)C132 (centres unmarked) | cell-free assay, competition with immobilised ligand |  | 10 µM |  | remaining binding | 92%
NC(=O)C[C@H]1CCc2sc3ncnc(O[C@H]4CC[C@H](N5CCOCC5)CC4)c3c21 | enzyme activity, inhibitor |  | 10 µM |  | inhibition | 7%
CC(=O)N1c2ccc(-c3ccc(CNC(=O)c4cn5cc(-c6cnc(N)nc6)nc(N6CCOCC6)c5n4)cc3)cc2CC[C@@H]1C | KINOMEscan |  | 10 µM |  | remaining binding | 92%
Cc1ccc(-c2c(/C=C(\C#N)C(=O)NC(C)C)n(CCCO)c3ncnc(N)c23)cc1 | cell-free assay, competition with immobilised ligand |  | 1 µM |  | remaining binding | 92%
COc1ccc(NC(=O)Nc2ccc3c(c2)C(=O)N(C(C)CO)CC(C)C(CN(C)Cc2ccc4c(c2)OCO4)O3)cc1 (centres unmarked) | kinase activity, KinaseProfiler |  | 0.03 µM, species human | relative to: control | remaining activity | 85%
C=CC(=O)N1CCc2ccc(-n3c(=O)ccc4cnc5ccc(-c6cnn(C)c6)cc5c43)cc21 | KINOMEscan |  | 1 µM | relative to: DMSO control | remaining binding | 95%
O=C=[N][Ru-4]123([n]4c5ccc(O)cc5c5c6c(c7cc(F)c[n+]1c7c54)C(=O)NC6=O)[S+]1CC[S+]2CC[S+]3CC1 (centres unmarked) | enzyme activity |  | 100 nM, human enzyme, with: 10 µM ATP | relative to: untreated | remaining activity | 98%
CN1CCN(Cc2ccc(NC(=O)c3cccc(C#Cc4cnc(N)c5ncccc45)c3)cc2C(F)(F)F)CC1 | cell-free assay, competition with immobilised ligand |  | 0.5 µM |  | remaining binding | 100%
CCN1CCN(Cc2ccc(C(=O)Nc3ccc(C)c(NCc4cnc5[nH]ccc5c4OC)c3)cc2C(F)(F)F)CC1 | binding, competition with immobilised ligand |  | 1 µM |  | remaining binding | 98%
C=CC(=O)Nc1cccc(-c2cnc3[nH]cc(C(=O)NC(C)(C)C)c3n2)c1 | enzyme activity, inhibitor |  | 0.1 µM |  | inhibition | 2%
CN1CCN(c2ccc(Nc3ncc(Cl)c(Nc4ccccc4P(C)(C)=O)n3)cc2Br)CC1 | enzyme activity, inhibitor |  | 0.1 µM |  | inhibition | 87.5%
CNC(=O)C[C@H](Cc1ccc(C#N)cc1)NC(=O)c1cc(-c2ccc(CN[C@H](C)c3ccc(C)cc3)o2)ccc1Cl | enzyme activity, inhibitor |  | 1 µM |  | activity vs control | 105%
Cc1cccc(O[C@H]2CCC[C@@H](C(C)CNCc3ccncc3)C2)c1 (relative stereo) | enzyme activity, inhibitor |  | 1 µM |  | inhibition | -11%

Repeated from above:
SMILES | test | test system | setting | scale | quantity | result
CN1CCN(Cc2ccc(NC(=O)c3cccc(C#Cc4cnc(N)c5ncccc45)c3)cc2C(F)(F)F)CC1 | cell-free assay, competition with immobilised ligand |  | 0.5 µM |  | remaining binding | 100%
CCN1CCN(Cc2ccc(C(=O)Nc3ccc(C)c(NCc4cnc5[nH]ccc5c4OC)c3)cc2C(F)(F)F)CC1 | binding, competition with immobilised ligand |  | 1 µM |  | remaining binding | 98%
C=CC(=O)Nc1cccc(-c2cnc3[nH]cc(C(=O)NC(C)(C)C)c3n2)c1 | enzyme activity, inhibitor |  | 0.1 µM |  | inhibition | 2%
